Results pooled from the literature.
Each numbered part is a random draw from the data of one study; scales do not carry over between parts.

Series 1
Target: RING finger protein unkempt homolog, zinc fingers 1-6, GST-SBP tag (UNK, Homo sapiens, UniProt Q9C0B0, residues 30-357)
Sequence of UniProt Q9C0B0 (30-357, looked up): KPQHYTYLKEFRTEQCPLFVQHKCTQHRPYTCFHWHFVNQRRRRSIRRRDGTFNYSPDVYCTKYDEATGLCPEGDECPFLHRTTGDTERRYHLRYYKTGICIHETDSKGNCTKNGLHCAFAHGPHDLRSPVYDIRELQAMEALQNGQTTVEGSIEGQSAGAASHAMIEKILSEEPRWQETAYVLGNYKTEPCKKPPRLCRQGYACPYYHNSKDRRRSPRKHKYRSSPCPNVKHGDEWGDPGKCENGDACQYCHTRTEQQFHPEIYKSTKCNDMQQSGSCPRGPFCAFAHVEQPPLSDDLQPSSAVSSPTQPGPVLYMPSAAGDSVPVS
Method: RNA Bind-n-Seq
Molecule type: RNA
Medium: in vitro
Tested at: not given
Notes: RNA with constant flanks, human and mouse sites, ends assumed
Baseline: input RNA pool
Reading: higher = stronger binding
Quantity: bound/input enrichment
Sequence = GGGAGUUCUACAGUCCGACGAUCGUGGGGCUGCUGGUGGGGGGCCUGAUCAAGGGUGUAGGCGAGACACCCCCCUUCCUGCAGUCCGACGUCUUCUUCCUCUUCCUGCUGCCGCCCAUCAUCCUGGAUGCGGGCUACUUCCUGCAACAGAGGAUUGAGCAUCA; value = 0.209 ratio
Sequence = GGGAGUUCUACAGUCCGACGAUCCCAUUCCAAAAUAAACAACUGAAACCAAAACAGCCUCCCAAACCACCACAGAUUCACUAUUGUGAUGUUUGUAAGAUCAGCUGUGCUGGACCACAGACUUAUAAAGAACAUUUAGAAGGACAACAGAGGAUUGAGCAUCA; value = 0.457 ratio
Sequence = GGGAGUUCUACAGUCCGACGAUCAACUUACAGCCUCUUUCUGAAAGGCUGACACUUCUUGCCAUUUUCAUAUCAACUUUUCUCUUUAGUCUGACAUGGCAAUUUAAUCAAUUUAUGAUGCUGAUGCAAGCAUUAGUGCUGUUCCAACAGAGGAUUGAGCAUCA; value = 1.56 ratio
Sequence = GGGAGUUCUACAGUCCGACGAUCUCCACACAGAAAAGGGCUAACUAUACAGCAGAGCAGGAAUCUCUGAAUAUCCCACUAAACGUUCUCUUCCUAUUUGUCAGUUGUAUUUUUCCUUAGGAUAAAGGUUUUAUCCACUAUAUUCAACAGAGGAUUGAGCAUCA; value = 0.211 ratio
Sequence = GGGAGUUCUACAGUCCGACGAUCCUGCAAGACAAGGACAAGGAGGUGGAAGAACUCCUCCAGGAGAUACAAUGUGAAAAGGCUCAAGCAAAGACAGCGUCUGAGCUUUCCAAGUCCAUGGAGUCCAUGCGGGGGCAUUUGCAGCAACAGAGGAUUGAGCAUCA; value = 0.114 ratio
Sequence = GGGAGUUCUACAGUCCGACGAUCAAUGUUGUAACUCGGAGGUUUAGCAAAGCUGACACAAUAGAUACGAUUGAGAAGGAAAUAAGAAAAAUCUUCAAUAUUCCAGAUGAGAAGGAGGCCAGACUGUGGAACAAGUAUAUGAGCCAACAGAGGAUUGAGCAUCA; value = 0.613 ratio

Series 2
Target: Ras GTPase-activating protein-binding protein 1, C-terminal RGG region (G3BP1, Homo sapiens, UniProt Q13283)
Sequence of UniProt Q13283 (whole entry, looked up): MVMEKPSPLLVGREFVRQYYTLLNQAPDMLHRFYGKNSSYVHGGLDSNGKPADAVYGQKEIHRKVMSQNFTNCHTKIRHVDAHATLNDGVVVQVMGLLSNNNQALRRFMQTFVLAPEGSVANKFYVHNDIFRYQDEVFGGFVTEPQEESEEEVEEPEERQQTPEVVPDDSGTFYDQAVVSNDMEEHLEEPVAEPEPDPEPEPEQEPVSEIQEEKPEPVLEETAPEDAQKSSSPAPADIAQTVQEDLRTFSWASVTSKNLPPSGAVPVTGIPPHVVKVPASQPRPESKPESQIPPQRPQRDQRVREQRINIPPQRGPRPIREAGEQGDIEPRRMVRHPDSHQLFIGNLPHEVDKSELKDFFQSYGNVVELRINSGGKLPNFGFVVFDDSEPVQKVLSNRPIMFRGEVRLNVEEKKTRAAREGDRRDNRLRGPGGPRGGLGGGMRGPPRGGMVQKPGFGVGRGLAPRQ
Method: RNA Bind-n-Seq
Molecule type: RNA
Medium: in vitro
Tested at: 1 µM
Notes: whole 134-nt RNA, ends assumed
Together with: 150 mM KCl
Baseline: input library
Reading: higher = stronger binding
Quantity: log2 enrichment
Sequence = GGGAGUUCUACAGUCCGACGAUCCCUGUGCUACACAUCGUAUGUACCGAAUCGGGGAAAAAAGGGAAAAAAGGGGAAAAAAGGAAAGUAUUAUGUUACGCCGUUCGGAUCUGCUGGAAUUCUCGGGUGUCAAGG; value = -1.65
Sequence = GGGAGUUCUACAGUCCGACGAUCCAAGUCCUGUGCUACACAUCGUAUGUACCGAAUCGGUUUGGGGUUUGGGUUUGGGAAAGUAUUAUGUUACGCCGUUCGGAUCUGCACUUCUGGAAUUCUCGGGUGUCAAGG; value = -0.295
Sequence = GGGAGUUCUACAGUCCGACGAUCUGGGAGGUGGAUUUUGUUUAUUUUUUUAGCUCAUUUCCAGGGGUGGGAAUUUUUUUUUAAUAUGUGUCAUGAAUAAAAUUGUUUUUGAAAUGGAAUUCUCGGGUGUCAAGG; value = 2.06
Sequence = GGGAGUUCUACAGUCCGACGAUCCUGUGCUACACAUCGUAUGUACCGAAUCGGGUUUUUUUGGGAAAAAAAGGGUUUUUUUGGGAAAGUAUUAUGUUACGCCGUUCGGAUCUGUGGAAUUCUCGGGUGUCAAGG; value = -2.15

Series 3
Target: PABPC1L2, full length, GST fusion (mouse, UniProt A0ABA7IW68)
Method: RNAcompete
Molecule type: RNA
Medium: in vitro
Tested at: 20 nM
Notes: 7-mer, probes averaged, single round
Baseline: mean of 7-mers
Reading: higher = stronger binding
Quantity: 7-mer Z-score
Residues (chain): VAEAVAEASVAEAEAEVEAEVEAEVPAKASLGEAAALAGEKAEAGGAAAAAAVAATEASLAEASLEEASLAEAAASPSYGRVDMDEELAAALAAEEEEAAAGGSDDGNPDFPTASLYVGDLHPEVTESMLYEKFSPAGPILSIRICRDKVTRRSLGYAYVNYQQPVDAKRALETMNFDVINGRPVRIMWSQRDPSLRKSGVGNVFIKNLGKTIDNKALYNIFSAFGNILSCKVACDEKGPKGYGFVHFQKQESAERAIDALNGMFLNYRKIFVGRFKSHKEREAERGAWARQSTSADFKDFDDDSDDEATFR
Sequence = ACCGUGG; value = 0.204
Sequence = UAGAUAC; value = -0.141
Sequence = GCAGAUA; value = -0.0138
Sequence = CUGAUCC; value = -0.382

Single results of other studies
Molecule = PhoQ, residues 284 288 289 292 302 303 NLCILV; target = PhoP, residues 12 14 15 18 19 GQAIL (Escherichia coli, UniProt P23836); test = Sort-seq, item: YFP reporter; test system = E. coli; conditions = PhoQ-PhoP variant library, together with: 10 µM Mg2+; how to read = baseline: high Mg2+ state, higher = stronger signaling; quantity = fold induction; value = 23.3

Excerpt of the above (series 1):
Sequence = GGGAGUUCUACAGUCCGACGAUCCCAUUCCAAAAUAAACAACUGAAACCAAAACAGCCUCCCAAACCACCACAGAUUCACUAUUGUGAUGUUUGUAAGAUCAGCUGUGCUGGACCACAGACUUAUAAAGAACAUUUAGAAGGACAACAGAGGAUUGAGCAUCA; value = 0.457 ratio
Sequence = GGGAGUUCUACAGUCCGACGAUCAACUUACAGCCUCUUUCUGAAAGGCUGACACUUCUUGCCAUUUUCAUAUCAACUUUUCUCUUUAGUCUGACAUGGCAAUUUAAUCAAUUUAUGAUGCUGAUGCAAGCAUUAGUGCUGUUCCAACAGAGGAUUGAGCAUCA; value = 1.56 ratio
